# Measured values of several laboratories.
# Protocols differ between the studies behind these lines. Numbers after ± are the reported error.
Structure (SMILES),assay,test system,conditions,clearance
O=C(/C=C/c1cccc(S(=O)(=O)Nc2ccccc2)c1)NO,,"human moderate liver dysfunction, plasma","intravenous, 400 mg/m^2, 30 min infusion, cycle 1 day -7",505 mL/min/m²
NC(=S)NN=Cc1ncccc1N,,"human, plasma","intravenous, 75 mg, steady state",420 ± 66.8 mL/min
CC(=O)O[C@H]1C(=O)[C@@]2(C)[C@H]([C@H](OC(=O)c3ccccc3)[C@]3(O)C[C@H](OC(=O)[C@H](O)[C@@H](NC(=O)c4ccccc4)c4ccccc4)C(C)=C1C3(C)C)[C@]1(OC(C)=O)CO[C@@H]1C[C@@H]2O,,"human, plasma","intravenous, 175 mg/m², cycle 1, no ritonavir, added: carboplatin",9.8 ± 3 L/h/m²
Cc1ccc(NC(=O)c2ccc(CN3CCNCC3)cc2)cc1Nc1nccc(-c2cccnc2)n1,,human patients,"oral, 400 mg of imatinib, first dose, day 1 of cycle 1",1110 mL/min
CC#CC(=O)N1CCC[C@H]1c1nc(-c2ccc(C(=O)Nc3ccccn3)cc2)c2c(N)nccn12,,"human, normal hepatic function","oral, 50 mg",4110 mL/min
CS(=O)(=O)CCNCc1ccc(-c2ccc3ncnc(Nc4ccc(OCc5cccc(F)c5)c(Cl)c4)c3c2)o1,,"healthy human, plasma","oral, 100 mg, single dose",1060 mL/min
CNCc1ccc(-c2[nH]c3cc(F)cc4c3c2CCNC4=O)cc1,,"human cancer patients, plasma","intravenous, 4 mg/m2, day 4, added: temozolomide 100",450 mL/min
CC(C)C[C@H](NC(=O)[C@H](CCc1ccccc1)NC(=O)CN1CCOCC1)C(=O)N[C@@H](Cc1ccccc1)C(=O)N[C@@H](CC(C)C)C(=O)[C@@]1(C)CO1,,"human patients, plasma","intravenous infusion 10 min, 27 mg/m^2, day 16 of cycle 1, KRd regimen",1650 ± 268 mL/min
CN[C@H]1C(=O)N[C@@H]2Cc3ccc(cc3)Oc3cc4cc(c3O[C@@H]3O[C@H](C(=O)O)[C@@H](O)[C@H](O)[C@H]3NC(=O)CCCCCCCCC(C)C)Oc3ccc(cc3Cl)[C@@H](O)[C@@H]3NC(=O)[C@H](NC(=O)[C@@H]4NC(=O)[C@@H](NC2=O)c2cc(cc(O)c2Cl)Oc2cc1ccc2O)c1ccc(O)c(c1)-c1c(O[C@H]2O[C@H](CO)[C@@H](O)[C@H](O)[C@@H]2O)cc(O)cc1[C@@H](C(=O)NCCCN(C)C)NC3=O,population PK model,human patients,"intravenous, typical covariate values",0.833 mL/min
CC[C@H](C)[C@H](NC(=O)[C@H](CC(C)C)NC(=O)[C@H](Cc1c[nH]c2ccccc12)NC(=O)[C@H](C)NC(=O)[C@@H](NC(=O)[C@H](Cc1ccccc1)NC(=O)[C@H](CC(=O)O)NC(=O)[C@H](CCCNC(=N)N)NC(=O)[C@H](C)NC(=O)[C@H](C)NC(=O)[C@H](CC(C)C)NC(=O)[C@H](C)NC(=O)[C@H](CC(=O)O)NC(=O)[C@H](CC(C)C)NC(=O)[C@@H](NC(=O)[C@@H](NC(=O)[C@H](C)NC(=O)[C@H](CC(C)C)NC(=O)[C@H](CCC(=O)O)NC(=O)[C@H](CO)NC(=O)[C@H](CO)NC(=O)[C@H](Cc1ccccc1)NC(=O)[C@@H](NC(=O)CNC(=O)[C@H](CCC(=O)O)NC(=O)CNC(=O)[C@@H](N)Cc1cnc[nH]1)[C@@H](C)O)[C@@H](C)O)[C@@H](C)CC)[C@@H](C)CC)C(=O)N[C@@H](C)C(=O)N[C@H](C(=O)N[C@@H](CCCCN)C(=O)N[C@H](C(=O)N[C@H](C(=O)N[C@@H](CC(=O)O)C(=O)N[C@@H](CCCCN)C(=O)N[C@@H](CCCCN)C(=O)N[C@@H](CCCCN)C(=O)N[C@@H](CCCCN)C(=O)N[C@@H](CCCCN)C(=O)N[C@@H](CCCCN)C(N)=O)[C@@H](C)O)[C@@H](C)CC)[C@@H](C)O,,"healthy human subjects, plasma","intravenous infusion, 1 mg glepaglutide",95.3 mL/min
NS(=O)(=O)OC[C@@H]1C[C@@H](n2ccc3c(N[C@H]4CCc5ccccc54)ncnc32)C[C@@H]1O,,human,"intravenous, 15 mg/m^2 single dose, day 8, added: itraconazole",442 mL/min
